{"data": "Assay results gathered from unrelated publications", "note": "Every numbered part comes from another study and shows a few of its results, in no order."}
{"data": "Block 1", "target": "Prothrombin, mature alpha-thrombin (F2, Homo sapiens, UniProt P00734)", "technique": "aptamer microarray, sandwich", "form": "DNA with 2'F-ANA", "matrix": "in vitro", "concentration": "200 nM", "notes": "whole 15-mer aptamer, many near background", "together with": "Cy3 exosite-II aptamer, 400 nM", "reading": "higher = stronger binding", "oligonucleotide": "GGTTGGTGTGGTTGG"}
{"Modification": "2'F-ANA at 4 6 9 10 11 14 15", "mean fluorescence intensity [a.u.]": 60.4}
{"Modification": "2'F-ANA at 2 3 4 5 6 11 14 15", "mean fluorescence intensity [a.u.]": 86.7}
{"Modification": "2'F-ANA at 2 5 14 15", "mean fluorescence intensity [a.u.]": 46}
{"Modification": "2'F-ANA at 5 6 7 8 11 12 14", "mean fluorescence intensity [a.u.]": 46.6}
{"Modification": "2'F-ANA at 1 4 5 7 9 12 14", "mean fluorescence intensity [a.u.]": 44}
{"Modification": "2'F-ANA at 2 6 8 10 13 14", "mean fluorescence intensity [a.u.]": 82.7}
{"Modification": "2'F-ANA at 1 4 5 8 13 15", "mean fluorescence intensity [a.u.]": 49.4}
{"Modification": "2'F-ANA at 1 2 7 10 12 13 14 15", "mean fluorescence intensity [a.u.]": 49.3}
{"Modification": "2'F-ANA at 1 2 5 6 7 8 10 12 15", "mean fluorescence intensity [a.u.]": 52.9}
{"Modification": "2'F-ANA at 2 4 8 11 12 15", "mean fluorescence intensity [a.u.]": 547}
{"Modification": "2'F-ANA at 1 2 3 4 6 7 8 9 10 12 13 15", "mean fluorescence intensity [a.u.]": 72.8}
{"Modification": "2'F-ANA at 2 3 4 5 6 8 10 12 13 14 15", "mean fluorescence intensity [a.u.]": 64.7}
{"Modification": "2'F-ANA at 1 3 4 9 12 13 15", "mean fluorescence intensity [a.u.]": 253}
{"Modification": "2'F-ANA at 2 3 4 6 8 11 12 13 14 15", "mean fluorescence intensity [a.u.]": 252}
{"Modification": "2'F-ANA at 2 3 4 5 6 9 10 14 15", "mean fluorescence intensity [a.u.]": 47.8}
{"Modification": "2'F-ANA at 3 4 5 7 8 11 13 15", "mean fluorescence intensity [a.u.]": 69.8}
{"Modification": "2'F-ANA at 2 3 5 8 9 10 12 14 15", "mean fluorescence intensity [a.u.]": 50.4}
{"Modification": "2'F-ANA at 2 5 6 7 8 9 12 14 15", "mean fluorescence intensity [a.u.]": 52.3}
{"Modification": "2'F-ANA at 1 2 6 8 10 11 12 15", "mean fluorescence intensity [a.u.]": 63.8}
{"Modification": "2'F-ANA at 3 4 5 6 7 9 10 13 14", "mean fluorescence intensity [a.u.]": 47.4}
{"data": "Block 2", "target": "TAR DNA-binding protein 43, full length, His tag (TARDBP, Homo sapiens, UniProt Q13148, residues 1-414)", "technique": "RNA Bind-n-Seq", "form": "RNA", "matrix": "in vitro", "concentration": "20 nM", "notes": "6-mer, flanks averaged, single round", "together with": "150 mM KCl", "reference": "input library", "reading": "higher = stronger binding"}
{"Oligonucleotide": "AAUCAU", "6-mer enrichment (R)": 0.588}
{"Oligonucleotide": "CUGCUA", "6-mer enrichment (R)": 0.617}
{"Oligonucleotide": "UACUGC", "6-mer enrichment (R)": 0.627}
{"Oligonucleotide": "GACUAC", "6-mer enrichment (R)": 0.672}
{"Oligonucleotide": "UCGGAG", "6-mer enrichment (R)": 1.34}
{"Oligonucleotide": "UAGAUC", "6-mer enrichment (R)": 0.592}
{"Oligonucleotide": "AGUCUA", "6-mer enrichment (R)": 0.581}
{"Oligonucleotide": "GAGACU", "6-mer enrichment (R)": 0.847}
{"Oligonucleotide": "CAAACA", "6-mer enrichment (R)": 0.633}
{"Oligonucleotide": "AUACGU", "6-mer enrichment (R)": 0.62}
{"Oligonucleotide": "UCGAGC", "6-mer enrichment (R)": 0.766}
{"Oligonucleotide": "GGUAGA", "6-mer enrichment (R)": 1.58}
{"Oligonucleotide": "UUCCAC", "6-mer enrichment (R)": 0.569}
{"Oligonucleotide": "GUCAGC", "6-mer enrichment (R)": 0.874}
{"Oligonucleotide": "AGAACG", "6-mer enrichment (R)": 0.984}
{"data": "Block 3", "target": "Histone acetyltransferase KAT6A, both winged helices, GST fusion (KAT6A, Homo sapiens, UniProt Q92794, residues 1-181)", "technique": "protein binding microarray", "form": "double-stranded DNA, one strand shown", "matrix": "in vitro", "concentration": "not given", "notes": "8-mer, flanks averaged, mean of 2 arrays, mostly near background", "reference": "not given", "reading": "higher = stronger binding", "Target sequence (chain)": "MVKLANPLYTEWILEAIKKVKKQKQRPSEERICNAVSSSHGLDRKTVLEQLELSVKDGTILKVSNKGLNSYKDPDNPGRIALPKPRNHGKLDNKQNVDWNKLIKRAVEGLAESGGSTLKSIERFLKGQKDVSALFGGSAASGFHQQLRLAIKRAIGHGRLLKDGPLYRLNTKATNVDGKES"}
{"Oligonucleotide": "CGACTCCG", "E-score": 0.117}
{"Oligonucleotide": "AACGCCAC", "E-score": 0.0105}
{"Oligonucleotide": "GCAGAGGC", "E-score": -0.0968}
{"Oligonucleotide": "AGGAAGCA", "E-score": -0.222}
{"Oligonucleotide": "GGGATGCA", "E-score": -0.0864}
{"Oligonucleotide": "GGTGGGAC", "E-score": -0.185}
{"Oligonucleotide": "TCGACAAA", "E-score": -0.0086}
{"Oligonucleotide": "TCTAGGAA", "E-score": -0.229}
{"Oligonucleotide": "CTGGCTTA", "E-score": -0.297}
{"Oligonucleotide": "AATAAATG", "E-score": -0.143}
{"Oligonucleotide": "AACGCGAA", "E-score": 0.0782}
{"Oligonucleotide": "AACCGCAC", "E-score": 0.0259}
{"Oligonucleotide": "GATAGATC", "E-score": -0.0336}
{"Oligonucleotide": "AGGTGGGC", "E-score": -0.167}
{"Oligonucleotide": "ATGCTCAC", "E-score": 0.115}
{"Oligonucleotide": "CAGGTGTC", "E-score": -0.026}
{"Oligonucleotide": "ATATCGGC", "E-score": 0.159}
{"Oligonucleotide": "AAAGAAGA", "E-score": -0.118}
{"Oligonucleotide": "ATAAGGAG", "E-score": -0.0412}
{"Oligonucleotide": "AGCGGGGA", "E-score": 0.182}
{"Oligonucleotide": "GTGTGCGA", "E-score": 0.0477}
{"Oligonucleotide": "AGCCTTTC", "E-score": -0.0147}
{"Oligonucleotide": "CCGTAAAG", "E-score": 0.216}
{"Oligonucleotide": "GCCCGTTA", "E-score": 0.265}
{"data": "Block 4", "target": "RNA binding protein fox-1 homolog 2, RRM domain, GST-SBP tag (RBFOX2, Homo sapiens, UniProt O43251-10, residues 100-194)", "technique": "RNA Bind-n-Seq", "form": "RNA", "matrix": "in vitro", "concentration": "365 nM", "notes": "natural RNA segment, single round, ends assumed", "reference": "no-protein control", "reading": "higher = stronger binding", "Target sequence (chain)": "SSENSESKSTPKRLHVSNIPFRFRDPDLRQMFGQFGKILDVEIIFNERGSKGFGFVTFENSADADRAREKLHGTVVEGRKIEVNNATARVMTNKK"}
{"Oligonucleotide": "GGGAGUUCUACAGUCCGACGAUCUGCAUGGAAUAUAUCUGCUGUCAUCUUAAUCUUAGUUUGGAUCAACCUCAUUUAUUUAUCUUAAAAUUAACCAGCUUUCUCAGUUCCAUCCAAAGAAGAUACAGUAUGAAUGGAAUUCUCGGGUGCCAA", "RBNS enrichment (R)": 1.93}
{"Oligonucleotide": "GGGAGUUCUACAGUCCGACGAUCAGGACCUCCCCACACACCCACACGAUGCCACAGGUCAGGGGGCUGUGCCUGACUAGGGAGCCCUCCCAUUGCCUUCCUGGCCCGGGAUAGAAGAGGGGAGGUAAGUCUGGUGGAAUUCUCGGGUGCCAA", "RBNS enrichment (R)": 0.574}
{"Oligonucleotide": "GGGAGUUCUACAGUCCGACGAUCAAAUUUUGUAUCAUCAGGACUGACACCCAAUUUGACACUUUUUGUAUCUAGAAGACCCUCCAAAAAAGGAACCACAUAAGCACACAAGAAAAGAGUGCUAUGAUGUUCUUUGGAAUUCUCGGGUGCCAA", "RBNS enrichment (R)": 0.291}
{"Oligonucleotide": "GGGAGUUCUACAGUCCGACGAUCACCUCUGCACUGAACUUCCUAUAAGUAACUUCCACCACACUGGUUUCUACUCUCAGAACUGCCCCAGUGCUUGCUGGGUAGACUUUUCAUCUAAGACAGUGGAUUUUUCAUGGAAUUCUCGGGUGCCAA", "RBNS enrichment (R)": 0.403}
{"Oligonucleotide": "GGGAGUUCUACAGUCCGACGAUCAGAUGUUUGUAAUCGUUUUCAGUCUCCUGCAGGUUUCUGUGCCCCUGUGGUGGAAGAGGGCACGACAGUGCCAGCGCAGCGUUCUGGGCUCCUCAGUCGCAGGGGUGGGAUGGAAUUCUCGGGUGCCAA", "RBNS enrichment (R)": 1.14}
{"Oligonucleotide": "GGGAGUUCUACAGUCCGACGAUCGGAUUCUGAACAGGCGCCAAGCUAACAGGUGGAGAAAUGAGCCAGAACUCCCUGUCUGAAAAGGAUGCCGAGCCUUGUGCUCAGCAGAGGGAAGUUUGGCUAAUGGGCUGUGGAAUUCUCGGGUGCCAA", "RBNS enrichment (R)": 0.314}
{"Oligonucleotide": "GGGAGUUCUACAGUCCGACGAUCCAGAUAUUUAUAAUCUUCAUCCUAUAUCAGUAGGAAUAACUAUAAGGUGCACUACAAAAAGAUGUAUGCAAACAAACAUGUUUUAAAUCAGGUCAGAUAUCUGAUGAAAAUGGAAUUCUCGGGUGCCAA", "RBNS enrichment (R)": 0.399}
{"Oligonucleotide": "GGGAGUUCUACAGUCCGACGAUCAAAAAAAUUCCUUUAACCCAAUUGGCCCAGCUCCUGCCUUUUUCAGGCUUCUUGCUAGGUUGUGUGACCUAUAUGUGUGUCUUCUCUGGUCUGGCCCCUCUUCAAGCCAUUGGAAUUCUCGGGUGCCAA", "RBNS enrichment (R)": 0.659}
{"Oligonucleotide": "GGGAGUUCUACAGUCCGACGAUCGCUCUACUUUGAUAUUAUAACCUAUGUCACAUGUGUUUAAUAAAUACCAUAUAUUUUGUUCUACUAAUGUUGUCUCUCUGUUUCAUCCAUGACCAUGUAGAAGGGGCAGAUGGAAUUCUCGGGUGCCAA", "RBNS enrichment (R)": 0.662}
{"Oligonucleotide": "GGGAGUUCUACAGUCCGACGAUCGUAGGAAAUGAGUGACAUCAAGUCAGUUUGCCUAGAAAUCCCAUGUCUUCCUGGAAACCUAAAGGGAAACAUGAUCUUGUCCUGAAAAUGAUAUUUUAGAGUCUGAGUGAUGGAAUUCUCGGGUGCCAA", "RBNS enrichment (R)": 0.522}
{"Oligonucleotide": "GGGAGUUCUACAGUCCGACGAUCUUUGAAGCCAGCCUGGCUACUUGAGACUCUGUCUCACAAAAGCAAAUAAACAAAGGAUUAUGCUUAAUAGUUUUCAUUGAAGUUUAUUAUAACUUAUUUCAGAUGUGUCCUGGAAUUCUCGGGUGCCAA", "RBNS enrichment (R)": 0.499}
{"Oligonucleotide": "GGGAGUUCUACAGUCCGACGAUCGCCUUGCUCCAGCAGCAGCACGGCCUAGCCCAACCCAGCCCAACCCGGCCCAACCCAGCCCAGCCCAGCUCAGCUCAGCUACUGCCAAGGGCAGGACCAAUGGCUGAGCCUGGAAUUCUCGGGUGCCAA", "RBNS enrichment (R)": 0.233}
